Measurements pooled from the literature.
Lines come from different studies, so protocols differ. Numbers after ± are the reported error.
Matrix: plasma

SMILES	system	conditions	scale	quantity	value
O=C(CCc1ccc(CNC(C(=O)O)C2CCCCC2)cn1)NO (stereo not drawn)	healthy male humans	oral, 40 mg, single dose, geometric mean	–	AUC(0-inf)	243 ng·h/mL
COc1cc2c(cc1OC)[C@H]1CC(=O)[C@H](CC(C)(C)O)CN1CC2 (racemic)	healthy human male	oral, 25 mg, geometric mean	–	AUC(0-inf) metabolite share of plasma radioactivity	5.9%
CC(C)(O)c1ncc([S@](N)(=O)=NC(=O)Nc2c3c(cc4c2CCC4)CCC3)s1	healthy human volunteers	oral, 10 mg single dose, fasted, capsule formulation	–	AUC(0-inf)	9560 ng·h/mL
NC(=O)/C=C/c1cccc(S(=O)(=O)Nc2ccccc2)c1	human, moderate liver dysfunction	intravenous, 400 mg/m^2 belinostat, cycle 1 day -7, geometric mean	relative to: metabolite over belinostat	AUC(0-inf) metabolic ratio	1.24
CCc1c2c(nc3ccc(O)cc13)-c1cc3c(c(=O)n1C2)COC(=O)[C@]3(O)CC	human patients	intravenous, 133 mg/m^2 of parent drug	–	AUC(0-inf)	1720 ng·h/mL
O=C(O)/C=C/c1cccc(S(=O)(=O)Nc2ccccc2)c1	human, severe liver dysfunction	intravenous, 400 mg/m^2 belinostat, cycle 1 day -7, geometric mean	relative to: metabolite over belinostat	AUC(0-inf) metabolic ratio	0.611
[2H]C([2H])([2H])NC(=O)c1ccc(N2C(=S)N(c3ccc(C#N)c(C(F)(F)F)c3)C(=O)C2(C)C)cc1F	healthy male humans	oral, 80 mg, fasting, soft capsules	–	AUC(0-inf)	335000 ± 61700 ng·h/mL
Cn1c(=O)oc2ccc(-c3ccc(CC(C#N)NC(=O)C4CNCCCO4)c(F)c3)cc21 (stereo not drawn)	human	20 mg once daily, day 28, geometric mean	–	AUC(0-inf)	3770 ng·h/mL
CONC(=O)/C=C/c1cccc(S(=O)(=O)Nc2ccccc2)c1	human, severe liver dysfunction	intravenous, 400 mg/m^2 belinostat, cycle 1 day -7, geometric mean	relative to: metabolite over belinostat	AUC(0-inf) metabolic ratio	0.759

For quick reference, copied from above:
SMILES	system	conditions	scale	quantity	value
[2H]C([2H])([2H])NC(=O)c1ccc(N2C(=S)N(c3ccc(C#N)c(C(F)(F)F)c3)C(=O)C2(C)C)cc1F	healthy male humans	oral, 80 mg, fasting, soft capsules	–	AUC(0-inf)	335000 ± 61700 ng·h/mL
